Results from different studies.
Numbered parts are unrelated; each lists some results of a single study.
UniProt P42336, sequence (whole entry, unmodified, looked up): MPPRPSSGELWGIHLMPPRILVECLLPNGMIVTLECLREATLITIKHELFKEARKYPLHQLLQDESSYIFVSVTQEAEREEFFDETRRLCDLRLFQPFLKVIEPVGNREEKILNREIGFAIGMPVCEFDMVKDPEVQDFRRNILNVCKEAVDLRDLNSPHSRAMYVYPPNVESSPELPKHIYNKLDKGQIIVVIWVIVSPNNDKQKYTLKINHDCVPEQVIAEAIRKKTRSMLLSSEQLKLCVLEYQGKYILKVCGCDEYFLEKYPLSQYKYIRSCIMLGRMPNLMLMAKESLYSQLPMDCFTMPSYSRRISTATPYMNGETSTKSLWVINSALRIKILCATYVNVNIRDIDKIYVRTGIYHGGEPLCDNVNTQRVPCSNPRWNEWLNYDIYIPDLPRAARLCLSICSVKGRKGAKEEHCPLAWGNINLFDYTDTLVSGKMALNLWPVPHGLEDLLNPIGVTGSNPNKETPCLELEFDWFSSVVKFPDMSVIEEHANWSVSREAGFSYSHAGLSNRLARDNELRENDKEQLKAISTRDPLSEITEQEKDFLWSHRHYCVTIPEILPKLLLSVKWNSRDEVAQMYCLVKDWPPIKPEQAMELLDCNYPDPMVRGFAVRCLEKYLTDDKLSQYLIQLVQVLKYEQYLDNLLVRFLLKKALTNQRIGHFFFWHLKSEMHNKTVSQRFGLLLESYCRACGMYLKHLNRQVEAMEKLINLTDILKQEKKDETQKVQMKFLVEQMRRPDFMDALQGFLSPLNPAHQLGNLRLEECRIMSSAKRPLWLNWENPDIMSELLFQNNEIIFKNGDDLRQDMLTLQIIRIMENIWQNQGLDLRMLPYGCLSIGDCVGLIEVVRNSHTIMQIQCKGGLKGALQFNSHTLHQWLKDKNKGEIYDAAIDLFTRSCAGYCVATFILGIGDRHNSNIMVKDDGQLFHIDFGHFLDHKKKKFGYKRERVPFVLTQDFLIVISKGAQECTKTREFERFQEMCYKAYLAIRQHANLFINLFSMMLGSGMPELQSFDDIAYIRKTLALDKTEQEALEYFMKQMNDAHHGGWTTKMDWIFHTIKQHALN
UniProt Q9UIK4, sequence (whole entry, looked up): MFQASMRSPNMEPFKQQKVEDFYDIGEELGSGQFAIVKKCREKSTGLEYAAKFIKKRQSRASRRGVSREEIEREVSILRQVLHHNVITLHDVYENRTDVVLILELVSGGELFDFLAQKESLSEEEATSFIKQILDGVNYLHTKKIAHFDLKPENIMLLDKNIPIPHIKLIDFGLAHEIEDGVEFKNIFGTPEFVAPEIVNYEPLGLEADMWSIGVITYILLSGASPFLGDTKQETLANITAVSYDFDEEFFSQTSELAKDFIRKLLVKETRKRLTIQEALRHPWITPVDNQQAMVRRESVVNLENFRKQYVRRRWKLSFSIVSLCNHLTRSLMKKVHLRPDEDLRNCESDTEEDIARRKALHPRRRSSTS
UniProt Q13557, sequence (whole entry, looked up): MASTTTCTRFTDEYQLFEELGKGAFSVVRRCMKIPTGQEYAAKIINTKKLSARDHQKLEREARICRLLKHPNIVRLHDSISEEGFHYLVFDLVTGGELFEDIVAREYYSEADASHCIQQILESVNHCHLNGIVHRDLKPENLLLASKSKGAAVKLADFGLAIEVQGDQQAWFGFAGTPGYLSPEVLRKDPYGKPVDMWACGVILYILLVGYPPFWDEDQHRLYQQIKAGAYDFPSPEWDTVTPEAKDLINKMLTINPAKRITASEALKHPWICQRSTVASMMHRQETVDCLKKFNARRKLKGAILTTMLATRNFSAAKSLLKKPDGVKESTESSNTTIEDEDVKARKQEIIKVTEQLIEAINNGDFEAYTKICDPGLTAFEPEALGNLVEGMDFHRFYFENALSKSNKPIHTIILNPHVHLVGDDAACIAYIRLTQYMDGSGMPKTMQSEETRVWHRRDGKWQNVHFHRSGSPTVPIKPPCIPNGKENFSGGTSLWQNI
UniProt P78368, sequence (whole entry, looked up): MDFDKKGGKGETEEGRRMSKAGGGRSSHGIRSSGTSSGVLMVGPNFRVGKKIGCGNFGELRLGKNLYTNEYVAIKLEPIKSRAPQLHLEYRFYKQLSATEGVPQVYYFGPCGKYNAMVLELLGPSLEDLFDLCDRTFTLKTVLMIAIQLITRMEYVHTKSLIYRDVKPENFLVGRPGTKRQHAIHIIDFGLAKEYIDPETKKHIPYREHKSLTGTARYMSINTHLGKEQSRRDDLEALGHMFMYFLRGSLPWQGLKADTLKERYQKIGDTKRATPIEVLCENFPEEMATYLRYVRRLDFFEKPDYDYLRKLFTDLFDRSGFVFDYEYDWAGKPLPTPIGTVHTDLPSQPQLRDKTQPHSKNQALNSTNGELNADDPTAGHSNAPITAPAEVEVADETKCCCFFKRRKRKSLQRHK
UniProt Q9BYP7, sequence (whole entry, looked up): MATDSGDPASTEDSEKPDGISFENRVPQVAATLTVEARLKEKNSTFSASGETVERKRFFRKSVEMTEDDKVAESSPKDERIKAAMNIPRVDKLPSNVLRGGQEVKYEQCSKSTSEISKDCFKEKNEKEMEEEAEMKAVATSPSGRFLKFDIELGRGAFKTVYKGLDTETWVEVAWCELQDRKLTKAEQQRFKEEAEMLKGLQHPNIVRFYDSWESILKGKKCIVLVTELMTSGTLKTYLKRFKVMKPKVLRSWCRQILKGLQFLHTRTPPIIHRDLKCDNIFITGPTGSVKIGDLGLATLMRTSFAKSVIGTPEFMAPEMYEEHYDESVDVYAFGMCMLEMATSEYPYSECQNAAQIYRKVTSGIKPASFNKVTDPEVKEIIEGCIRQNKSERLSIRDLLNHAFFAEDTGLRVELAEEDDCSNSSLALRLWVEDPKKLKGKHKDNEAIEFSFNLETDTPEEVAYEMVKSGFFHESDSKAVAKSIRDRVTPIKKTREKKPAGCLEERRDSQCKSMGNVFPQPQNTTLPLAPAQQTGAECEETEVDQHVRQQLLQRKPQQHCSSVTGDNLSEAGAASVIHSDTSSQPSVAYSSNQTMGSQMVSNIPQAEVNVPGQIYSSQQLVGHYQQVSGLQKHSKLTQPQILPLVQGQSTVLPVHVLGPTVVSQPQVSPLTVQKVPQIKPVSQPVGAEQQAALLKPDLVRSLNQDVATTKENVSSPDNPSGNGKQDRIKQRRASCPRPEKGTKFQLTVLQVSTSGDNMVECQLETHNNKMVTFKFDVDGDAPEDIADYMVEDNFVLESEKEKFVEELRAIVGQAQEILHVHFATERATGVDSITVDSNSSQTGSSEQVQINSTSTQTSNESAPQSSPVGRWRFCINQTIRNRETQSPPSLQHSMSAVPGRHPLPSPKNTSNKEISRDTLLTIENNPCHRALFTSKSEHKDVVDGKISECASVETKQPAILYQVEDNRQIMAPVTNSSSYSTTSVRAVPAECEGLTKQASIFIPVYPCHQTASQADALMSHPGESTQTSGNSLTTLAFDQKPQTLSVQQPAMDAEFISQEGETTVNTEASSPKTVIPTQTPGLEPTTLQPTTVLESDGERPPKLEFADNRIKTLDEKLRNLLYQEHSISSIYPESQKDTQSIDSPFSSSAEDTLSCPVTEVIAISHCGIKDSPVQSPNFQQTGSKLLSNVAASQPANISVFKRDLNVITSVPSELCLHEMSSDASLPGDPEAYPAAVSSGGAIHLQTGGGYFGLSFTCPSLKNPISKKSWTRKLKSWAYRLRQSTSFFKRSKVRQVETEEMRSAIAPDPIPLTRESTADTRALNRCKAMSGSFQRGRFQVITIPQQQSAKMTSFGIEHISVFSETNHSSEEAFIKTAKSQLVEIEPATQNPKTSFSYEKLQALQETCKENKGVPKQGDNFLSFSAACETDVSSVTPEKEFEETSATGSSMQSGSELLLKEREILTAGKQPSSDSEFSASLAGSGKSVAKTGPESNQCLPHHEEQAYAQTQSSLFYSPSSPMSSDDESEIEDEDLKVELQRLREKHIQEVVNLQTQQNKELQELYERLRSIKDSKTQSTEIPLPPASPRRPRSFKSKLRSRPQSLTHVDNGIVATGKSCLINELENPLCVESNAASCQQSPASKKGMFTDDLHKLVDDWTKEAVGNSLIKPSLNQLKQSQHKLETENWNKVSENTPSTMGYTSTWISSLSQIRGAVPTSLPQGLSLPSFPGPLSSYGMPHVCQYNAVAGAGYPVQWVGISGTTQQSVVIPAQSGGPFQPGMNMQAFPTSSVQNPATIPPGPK
UniProt Q13705, sequence (whole entry, looked up): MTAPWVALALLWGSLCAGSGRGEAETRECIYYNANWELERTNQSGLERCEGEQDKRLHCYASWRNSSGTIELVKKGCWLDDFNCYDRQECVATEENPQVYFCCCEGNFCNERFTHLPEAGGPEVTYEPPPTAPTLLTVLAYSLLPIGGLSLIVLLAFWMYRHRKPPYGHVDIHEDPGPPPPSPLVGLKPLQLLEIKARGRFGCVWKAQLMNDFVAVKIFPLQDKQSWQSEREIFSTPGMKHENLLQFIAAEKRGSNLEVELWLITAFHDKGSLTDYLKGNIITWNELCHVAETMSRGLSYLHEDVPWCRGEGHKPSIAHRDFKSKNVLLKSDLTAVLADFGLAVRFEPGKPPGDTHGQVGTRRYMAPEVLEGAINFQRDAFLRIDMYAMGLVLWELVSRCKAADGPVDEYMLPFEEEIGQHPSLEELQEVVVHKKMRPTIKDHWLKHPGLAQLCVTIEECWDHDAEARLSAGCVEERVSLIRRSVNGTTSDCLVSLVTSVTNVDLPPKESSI
UniProt P50613, sequence (whole entry, looked up): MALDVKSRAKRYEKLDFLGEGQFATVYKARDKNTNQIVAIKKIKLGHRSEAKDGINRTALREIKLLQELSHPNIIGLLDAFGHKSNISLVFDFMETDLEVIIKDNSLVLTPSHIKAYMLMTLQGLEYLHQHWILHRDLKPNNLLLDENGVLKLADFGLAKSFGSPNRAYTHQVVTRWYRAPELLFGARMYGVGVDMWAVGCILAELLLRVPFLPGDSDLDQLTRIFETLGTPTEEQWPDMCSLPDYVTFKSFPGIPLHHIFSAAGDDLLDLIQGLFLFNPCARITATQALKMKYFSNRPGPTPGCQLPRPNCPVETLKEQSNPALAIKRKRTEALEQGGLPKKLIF

Block 1
Structure (SMILES): O=C(NC(NC(=S)Nc1ccc(F)c([N+](=O)[O-])c1)C(Cl)(Cl)Cl)C(c1ccccc1)c1ccccc1 (stereo not drawn)
Read-out: enzyme activity
Action: inhibitor
Tested at: 0.5 µM
Baseline: control
| target | remaining activity [%] |
| --- | --- |
| Cyclin-dependent kinase 5, with p25 (CDK5, Homo sapiens, UniProt Q00535) | 96.8 |
| DAPK1 (Homo sapiens, UniProt P53355) | 75.1 |
| Tyrosine-protein kinase Lyn, isoform B (LYN, Homo sapiens, UniProt P07948) | 116 |
| CAMKK2 (Homo sapiens, UniProt Q96RR4) | 126 |
| DAPK2 (Homo sapiens, UniProt Q9UIK4) | 103 |
| GRK3 (Homo sapiens, UniProt P35626) | 98.3 |
| NEK2 (Homo sapiens, UniProt P51955) | 112 |
| MAP3K3 (Homo sapiens, UniProt Q99759) | 118 |
| PRKCA (Homo sapiens, UniProt P17252) | 73.1 |
| TGFBR2 (Homo sapiens, UniProt P37173) | 91.6 |
| CHEK2 (Homo sapiens, UniProt O96017) | 97.6 |
| OXSR1 (Homo sapiens, UniProt O95747) | 98.3 |
| STK10 (Homo sapiens, UniProt O94804) | 108 |
| IKBKB (Homo sapiens, UniProt O14920) | 102 |
| CAMK2D (Homo sapiens, UniProt Q13557) | 102 |
| Cyclin-dependent kinase 4, with cyclin D1 (CDK4, Homo sapiens, UniProt P11802) | 116 |
| TGFBR1 (Homo sapiens, UniProt P36897) | 92.6 |
| cGMP-dependent protein kinase 1, isoform beta (PRKG1, Homo sapiens, UniProt Q13976) | 109 |
| STK39 (Homo sapiens, UniProt Q9UEW8) | 77 |
| MAPK9 (Homo sapiens, UniProt P45984) | 88.6 |
| IKBKE (Homo sapiens, UniProt Q14164) | 106 |

Block 2
Compound: COc1ccc2[nH]c3c4[nH]c5ccc(OC)cc5c4c4c(c3c2c1)C(=O)NC4=O
| target | assay | conditions | scale | remaining binding |
| --- | --- | --- | --- | --- |
| WNK3 (Homo sapiens, UniProt Q9BYP7) | binding | 1 µM | – | 92% |
| PIK3CA (Homo sapiens, UniProt P42336, Q546K) | binding | 1 µM | – | 91% |
| TXK (Homo sapiens, UniProt P42681) | binding, competition with immobilised ligand | 1 µM | – | 100% |
| FLT3 ITD | KINOMEscan | 1000 nM | baseline: control | 2.1% |
| FGFR3 (Homo sapiens, UniProt P22607, G697C) | binding | 1 µM | – | 100% |
| CAMK2B (Homo sapiens, UniProt Q13554) | binding | 1 µM | – | 100% |
| GAK (Homo sapiens, UniProt O14976) | binding, competition with immobilised ligand | 1 µM | – | 0.3% |
| KIT (Homo sapiens, UniProt P10721, D816V) | binding | 1 µM | – | 1.7% |

Block 3
SMILES: FC(F)(F)c1ccc2c(c1)nc(-c1cccnc1)n2C1CC1
Read-out: cell-free assay
Method: competition with immobilised ligand
Tested at: 1 µM
| target | remaining binding [%] |
| --- | --- |
| PIK3CA (Homo sapiens, UniProt P42336, E545A) | 90 |
| Ribosomal protein S6 kinase alpha-5, C-terminal kinase domain (RPS6KA5, Homo sapiens, UniProt O75582) | 100 |
| GSK3A (Homo sapiens, UniProt P49840) | 100 |
| DAPK2 (Homo sapiens, UniProt Q9UIK4) | 100 |
| MAP3K7 (Homo sapiens, UniProt O43318) | 100 |
| EGFR (Homo sapiens, UniProt P00533, G719C) | 92 |
| MAP4K3 (Homo sapiens, UniProt Q8IVH8) | 100 |
| Tyrosine-protein kinase JAK1, JH2 (JAK1, Homo sapiens, UniProt P23458) | 85 |
| FLT3 (Homo sapiens, UniProt P36888, R834Q) | 100 |
| CDC42BPA (Homo sapiens, UniProt Q5VT25) | 100 |
| IGF1R (Homo sapiens, UniProt P08069) | 100 |
| CSNK1G2 (Homo sapiens, UniProt P78368) | 100 |
| CDK7 (Homo sapiens, UniProt P50613) | 100 |
| CSF1R (Homo sapiens, UniProt P07333) | 100 |
| PIK3CB (Homo sapiens, UniProt P42338) | 97 |
| PKMYT1 (Homo sapiens, UniProt Q99640) | 100 |
| ACVR2B (Homo sapiens, UniProt Q13705) | 100 |
| PTK2 (Homo sapiens, UniProt Q05397) | 100 |
| PRKACB (Homo sapiens, UniProt P22694) | 100 |
| MAPK6 (Homo sapiens, UniProt Q16659) | 100 |
| SGK1 (Homo sapiens, UniProt O00141) | 100 |
| PRKACA (Homo sapiens, UniProt P17612) | 100 |
| BUB1 (Homo sapiens, UniProt O43683) | 89 |
| PIK3CA (Homo sapiens, UniProt P42336, H1047L) | 100 |
| PTK6 (Homo sapiens, UniProt Q13882) | 100 |

Block 4
Cell line: mouse MPNST tumor cells
Method: high-content nuclear imaging
Refers to: cell number
Tested at: 10 µM
Time: 12 h
Setting: mean of 2 replicates
Baseline: plate mean
Direction: higher = more cells
| Structure (SMILES) | nuclei count |
| --- | --- |
| C[C@@H](O)[C@H]1C(=O)N2C(C(=O)O)=C(SCCNC=N)C[C@H]12 | -0.421 z-score |
| CN(C)CCC(c1ccccc1)c1ccccn1 (stereo not drawn) | -0.0174 z-score |
| N[C@@H](CCC(=O)N[C@@H](CSN=O)C(=O)NCC(=O)O)C(=O)O | 3.03 z-score |
| CC(=O)O[C@]1(C(C)=O)CC[C@H]2[C@@H]3C=C(Cl)C4=CC(=O)CC[C@]4(C)[C@H]3CC[C@@]21C | 3.13 z-score |
| CCN(CC)CCNC(=O)c1c(C)[nH]c(/C=C2\C(=O)Nc3ccc(F)cc32)c1C | 1.43 z-score |
| O=c1[nH]c(=O)n([C@H]2C[C@H](O)[C@@H](CO)O2)cc1F | -2.37 z-score |
| CCCOc1ccc(C(=O)OCCN(CC)CC)cc1N | -0.752 z-score |
| Nc1ncnc2c1ncn2[C@@H]1O[C@H](CO)[C@@H](O)[C@@H]1O | 1.28 z-score |
| CCOC(=O)c1cc(C#N)c(N2CCC(C(=O)NS(=O)(=O)Cc3ccccc3)CC2)nc1C | 0.255 z-score |
| NC(=O)N1c2ccccc2CC(=O)c2ccccc21 | 0.0114 z-score |
| CN(C)CCCN1c2ccccc2Sc2ccc(C(F)(F)F)cc21 | -7.3 z-score |
| COc1c(C)c2c(c(O)c1C/C=C(\C)CCC(=O)OCCN1CCOCC1)C(=O)OC2 | -2.66 z-score |
